Measurements from different studies.
Compare with care: the assays were run in different laboratories. ± gives the spread as reported.

Compound | test | test system | conditions | tissue uptake
O=C(NCC1OC2CCC=CCCC2O1)c1ccc(COCCOCCOCC[18F])cc1 (stereo not shown) | – | healthy female BALB/c nude mice, bladder | intravenous, 7.4 MBq per mouse, 30 min | 3.2 ± 0.6 %ID/g
CC(C)C[C@H](NC(=O)[C@@H](CCCCNC(=O)[C@@H](Cc1ccccc1)NC(=O)CCCCCCCNC(=O)CN1CCN(CC(=O)O)CCN(CC(=O)O)CCN(CC(=O)O)CC1)NC(=O)[C@H](Cc1ccc(O)cc1)NC(=O)[C@H](CO)NC(=O)[C@H](Cc1c[nH]c2ccccc12)NC(=O)[C@H](Cc1c[nH]cn1)NC(=O)[C@@H]1CCC(=O)N1)C(=O)N[C@@H](CCCNC(=N)N)C(=O)N1CCC[C@H]1C(=O)NCC(N)=O [indium-111 labelled] | biodistribution | male athymic nude mice, DU-145 prostate cancer xenograft, lung | intravenous, 0.037 MBq, 2 h post-injection | 0.21 ± 0.04 %ID/g
CCCC[C@H](NC(=O)CNC(=O)CNC(=O)[C@H](CCCCNC(=O)[C@H](CCN)NC(=O)C(C)c1ccc(CC(C)C)cc1)NC(=O)CN1CCN(CC(=O)O)CCN(CC(=O)O)CCN(CC(=O)O)CC1)C(=O)N[C@H]1CC(=O)NCCCC[C@@H](C(N)=O)NC(=O)[C@H](Cc2c[nH]c3ccccc23)NC(=O)[C@H](CCCNC(=N)N)NC(=O)[C@@H](Cc2ccccc2)NC(=O)[C@H](Cc2c[nH]cn2)NC1=O (stereo partly shown) [lutetium-177 labelled] | – | C57 mice, tumour-bearing, liver | 2 h | 46.4 ± 3.28 %ID/g
CCCC[C@H](NC(=O)COCCOCCNC(=O)CN1CCN(CC(=O)O)CCN(CC(=O)O)CC1)C(=O)N[C@H]1CC(=O)NCCCC[C@@H](C(N)=O)NC(=O)[C@H](Cc2c[nH]c3ccccc23)NC(=O)[C@H](CCCNC(=N)N)NC(=O)[C@@H](Cc2ccccc2)NC(=O)[C@H](Cc2c[nH]cn2)NC1=O [fluorine-18 labelled] | – | C57 mice, B16/F10 melanoma, heart | intravenous, 1 h, added: NDP-MSH 10 µg | 0.11 ± 0.12 %ID/g
Cc1cc(C)n(CCN(CCN)CCCCCCNC(=O)[C@@H](N)Cc2c[nH]c3ccccc23)n1.[99Tc+].[C-]#[O+].[C-]#[O+].[C-]#[O+] | – | BALB/c nude mice, A549 xenograft, brain | intravenous, 15 min | 0.1 ± 0.03 %IA/g
COc1ccc(Nc2nc(Nc3ccc(OCCOCC[18F])cc3)ncc2Br)cc1 | – | ICR mice, S180 tumour, kidney | intravenous, 30 min, added: PF-562271 33 mg/kg oral 1 h before | 5.83 ± 0.68 %ID/g
O=C(NCC1OC2CCC=CCCC2O1)c1ccc([18F])nc1 (stereo not shown) | – | healthy female BALB/c nude mice, small intestine | intravenous, 7.4 MBq per mouse, 5 min | 8.2 ± 1.2 %ID/g
Cc1cc(C)n(CCN(CCN)CCCCCCNC(=O)[C@@H](N)Cc2c[nH]cn2)n1.[99Tc+].[C-]#[O+].[C-]#[O+].[C-]#[O+] | – | BALB/c nude mice MCF7 xenograft, blood | intravenous, 4 h | 0.24 ± 0.13 %ID/g
CCCC[C@H](NC(=O)CCCCCCCNC(=O)CN1CCN(CC(=O)O)CCN(CC(=O)O)CC1)C(=O)N[C@H]1CC(=O)NCCCC[C@@H](C(N)=O)NC(=O)[C@H](Cc2c[nH]c3ccccc23)NC(=O)[C@H](CCCNC(=N)N)NC(=O)[C@@H](Cc2ccccc2)NC(=O)[C@H](Cc2c[nH]cn2)NC1=O [fluorine-18 labelled] | – | C57 mice B16-F10 melanoma, brain | intravenous, 0.37 MBq, 2 h | 0.05 ± 0.01 %ID/g
N#C[C@@H]1CCCN1C(=O)CNC(=O)c1ccnc2ccc(OCCCN3CCN(C(=O)CCc4ccc(O)c(CN5CCN6CC(=O)[O][Al-]([18F])([O]C(=O)C5)[O]c5ccc(CCC(=O)N7CCN(CCCOc8ccc9nccc(C(=O)NCC(=O)N%10CCC[C@H]%10C#N)c9c8)CC7)cc5C6)c4)CC3)cc12 (stereo partly shown) | – | BALB/c nude mice, U-87 MG tumour, gallbladder | 60 min post-injection | 106 ± 31.4 %ID/g

A few entries again:
Compound | test | test system | conditions | tissue uptake
N#C[C@@H]1CCCN1C(=O)CNC(=O)c1ccnc2ccc(OCCCN3CCN(C(=O)CCc4ccc(O)c(CN5CCN6CC(=O)[O][Al-]([18F])([O]C(=O)C5)[O]c5ccc(CCC(=O)N7CCN(CCCOc8ccc9nccc(C(=O)NCC(=O)N%10CCC[C@H]%10C#N)c9c8)CC7)cc5C6)c4)CC3)cc12 (stereo partly shown) | – | BALB/c nude mice, U-87 MG tumour, gallbladder | 60 min post-injection | 106 ± 31.4 %ID/g
